Literature values that unrelated publications cite.
± gives the spread as reported.
Sequence of UniProt P35372 (whole entry, looked up): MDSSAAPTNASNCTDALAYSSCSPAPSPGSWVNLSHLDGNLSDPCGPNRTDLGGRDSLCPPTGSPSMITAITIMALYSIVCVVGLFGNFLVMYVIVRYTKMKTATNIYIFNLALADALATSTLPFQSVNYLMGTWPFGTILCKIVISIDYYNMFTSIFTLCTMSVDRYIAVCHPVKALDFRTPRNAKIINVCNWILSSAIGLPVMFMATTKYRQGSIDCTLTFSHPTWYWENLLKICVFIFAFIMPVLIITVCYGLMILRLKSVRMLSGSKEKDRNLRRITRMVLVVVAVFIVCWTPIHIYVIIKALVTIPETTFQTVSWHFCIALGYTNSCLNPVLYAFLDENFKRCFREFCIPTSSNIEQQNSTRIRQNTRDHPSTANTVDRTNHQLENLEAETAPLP
Sequence of UniProt P34969 (whole entry, looked up): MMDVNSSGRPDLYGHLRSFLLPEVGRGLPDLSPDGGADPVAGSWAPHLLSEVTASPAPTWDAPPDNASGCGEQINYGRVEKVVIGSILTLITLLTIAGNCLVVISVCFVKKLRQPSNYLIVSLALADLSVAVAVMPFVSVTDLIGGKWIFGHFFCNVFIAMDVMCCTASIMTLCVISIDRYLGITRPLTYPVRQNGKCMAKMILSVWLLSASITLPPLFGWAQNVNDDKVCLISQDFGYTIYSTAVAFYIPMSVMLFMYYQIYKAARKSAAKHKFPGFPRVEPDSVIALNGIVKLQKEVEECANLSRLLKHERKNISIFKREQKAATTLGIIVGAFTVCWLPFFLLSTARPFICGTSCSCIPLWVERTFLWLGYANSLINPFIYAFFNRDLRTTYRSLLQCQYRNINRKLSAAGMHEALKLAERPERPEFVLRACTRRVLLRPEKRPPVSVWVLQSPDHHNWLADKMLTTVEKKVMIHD
Sequence of UniProt P31652 (whole entry, looked up): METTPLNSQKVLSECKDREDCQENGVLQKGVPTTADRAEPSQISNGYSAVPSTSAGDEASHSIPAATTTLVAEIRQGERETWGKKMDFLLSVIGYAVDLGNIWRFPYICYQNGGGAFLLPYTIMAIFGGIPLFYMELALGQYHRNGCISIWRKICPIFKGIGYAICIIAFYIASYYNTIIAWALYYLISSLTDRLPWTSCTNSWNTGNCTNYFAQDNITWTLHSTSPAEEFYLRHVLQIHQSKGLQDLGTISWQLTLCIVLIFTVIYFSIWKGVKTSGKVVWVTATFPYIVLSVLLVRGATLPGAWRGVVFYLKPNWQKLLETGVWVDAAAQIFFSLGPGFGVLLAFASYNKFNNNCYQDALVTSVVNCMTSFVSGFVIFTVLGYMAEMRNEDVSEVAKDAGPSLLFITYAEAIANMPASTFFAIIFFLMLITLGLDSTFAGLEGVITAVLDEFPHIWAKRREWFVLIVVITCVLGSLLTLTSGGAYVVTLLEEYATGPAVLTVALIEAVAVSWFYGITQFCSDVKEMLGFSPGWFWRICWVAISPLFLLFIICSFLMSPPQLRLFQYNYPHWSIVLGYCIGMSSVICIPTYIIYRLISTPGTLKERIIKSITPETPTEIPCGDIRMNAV

`GRPQGPPQ` has an inhibition of 97% (Porphyromonas gingivalis; fimbrial binding to PRP1-coated hydroxyapatite, inhibitor; peptide; concentration not given).
The efficacy of `CC(C)(C)OC(=O)c1cc2c(cn1)[nH]c1ccccc12` is reported as 88 ± 7% (human GABAA α5β3γ2 receptor; modulator, two-electrode voltage clamp; Xenopus oocytes; saturating, with: GABA EC50; baseline: GABA response).
With `C[C@]12CCC(=O)CC1=CC[C@@H]1[C@@H]2CC[C@]2(C)C(=O)CC[C@@H]12` the Km was 23 ± 1 µM (ketosteroid isomerase Y55F; substrate; pH 7.0, 3.3 % methanol).
The Ki of `C=CCN(CC=C)CCc1c[nH]c2ccc(OC)cc12` is reported as over 10 µM (OPRM1 (Homo sapiens, UniProt P35372)).
`COC(=O)[C@H]1[C@@H](OC(=O)c2ccccc2)C[C@@H]2CC[C@H]1N2C`: EC50 “inactive” (Slc6a4 (Rattus norvegicus, UniProt P31652); transporter-mediated release, substrate; rat brain synaptosomes).
For `N#C/N=C1\SCCN1Cc1ccc(Cl)nc1`, “SOD, peroxidase, catalase activity” read “inhibited” (Eisenia fetida; soil; 1.0 and 3.0 mg/kg).
Under “Km or Ki”, `O=c1c2nc(Br)n([C@@H]3O[C@@H]4CO[P@@](O)(=S)O[C@H]4[C@H]3O)c2nc2[nH]c(-c3ccccc3)cn12` is recorded as 13.8 µM (PDE6; cyclic nucleotide hydrolysis, substrate or inhibitor, isothermal titration calorimetry).
`N[C@]1(c2ccccc2Cl)CCC[C@H](O)C1=O` — result for activity: “inactive” (opioid receptors; binding, competitive binding screen; concentration not given).
`COC1C2OP(O)(=S)OCC2OC1n1c(Sc2ccc(Cl)cc2)nc2c(N)ncnc21` (stereo not shown): “Km or Ki” 1.05 µM (PDE6; cyclic nucleotide hydrolysis, substrate or inhibitor, isothermal titration calorimetry).
For `C=CCN(CC=C)CCc1c[nH]c2ccccc12`, the Ki was over 10 µM (HTR7 (Homo sapiens, UniProt P34969); binding, [3H]LSD displacement).

A few entries again:
`COC1C2OP(O)(=S)OCC2OC1n1c(Sc2ccc(Cl)cc2)nc2c(N)ncnc21` (stereo not shown): “Km or Ki” 1.05 µM (PDE6; cyclic nucleotide hydrolysis, substrate or inhibitor, isothermal titration calorimetry).
